Published values of several laboratories.
Every numbered part comes from another study and shows a few of its results, in no order. “And” joins repeats or separate records; there may be more than shown.
Chain of UniProt Q9Y4K4 (whole entry, looked up): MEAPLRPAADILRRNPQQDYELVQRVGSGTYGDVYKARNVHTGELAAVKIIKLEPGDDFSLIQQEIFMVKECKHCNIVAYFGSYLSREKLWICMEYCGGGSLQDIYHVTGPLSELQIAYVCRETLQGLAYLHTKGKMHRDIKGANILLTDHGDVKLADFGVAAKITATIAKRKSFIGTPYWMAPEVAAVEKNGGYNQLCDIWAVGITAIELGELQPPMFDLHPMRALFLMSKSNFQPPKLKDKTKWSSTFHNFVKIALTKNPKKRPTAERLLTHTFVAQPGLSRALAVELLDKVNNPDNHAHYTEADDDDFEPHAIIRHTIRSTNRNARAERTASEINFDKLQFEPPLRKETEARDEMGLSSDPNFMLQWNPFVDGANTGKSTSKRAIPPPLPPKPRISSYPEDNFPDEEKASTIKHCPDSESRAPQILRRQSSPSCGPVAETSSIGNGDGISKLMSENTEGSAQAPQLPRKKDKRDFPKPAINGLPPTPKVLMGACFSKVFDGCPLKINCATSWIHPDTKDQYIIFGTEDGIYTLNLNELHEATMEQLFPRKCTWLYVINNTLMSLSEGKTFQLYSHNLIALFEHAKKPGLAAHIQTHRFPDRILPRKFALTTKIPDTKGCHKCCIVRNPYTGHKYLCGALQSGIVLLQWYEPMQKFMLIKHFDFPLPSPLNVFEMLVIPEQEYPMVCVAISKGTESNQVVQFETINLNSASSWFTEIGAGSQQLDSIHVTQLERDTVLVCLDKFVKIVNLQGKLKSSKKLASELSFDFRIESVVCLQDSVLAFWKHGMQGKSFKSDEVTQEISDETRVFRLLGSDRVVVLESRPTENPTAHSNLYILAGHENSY
Chain of UniProt Q6ZN16 (whole entry, looked up): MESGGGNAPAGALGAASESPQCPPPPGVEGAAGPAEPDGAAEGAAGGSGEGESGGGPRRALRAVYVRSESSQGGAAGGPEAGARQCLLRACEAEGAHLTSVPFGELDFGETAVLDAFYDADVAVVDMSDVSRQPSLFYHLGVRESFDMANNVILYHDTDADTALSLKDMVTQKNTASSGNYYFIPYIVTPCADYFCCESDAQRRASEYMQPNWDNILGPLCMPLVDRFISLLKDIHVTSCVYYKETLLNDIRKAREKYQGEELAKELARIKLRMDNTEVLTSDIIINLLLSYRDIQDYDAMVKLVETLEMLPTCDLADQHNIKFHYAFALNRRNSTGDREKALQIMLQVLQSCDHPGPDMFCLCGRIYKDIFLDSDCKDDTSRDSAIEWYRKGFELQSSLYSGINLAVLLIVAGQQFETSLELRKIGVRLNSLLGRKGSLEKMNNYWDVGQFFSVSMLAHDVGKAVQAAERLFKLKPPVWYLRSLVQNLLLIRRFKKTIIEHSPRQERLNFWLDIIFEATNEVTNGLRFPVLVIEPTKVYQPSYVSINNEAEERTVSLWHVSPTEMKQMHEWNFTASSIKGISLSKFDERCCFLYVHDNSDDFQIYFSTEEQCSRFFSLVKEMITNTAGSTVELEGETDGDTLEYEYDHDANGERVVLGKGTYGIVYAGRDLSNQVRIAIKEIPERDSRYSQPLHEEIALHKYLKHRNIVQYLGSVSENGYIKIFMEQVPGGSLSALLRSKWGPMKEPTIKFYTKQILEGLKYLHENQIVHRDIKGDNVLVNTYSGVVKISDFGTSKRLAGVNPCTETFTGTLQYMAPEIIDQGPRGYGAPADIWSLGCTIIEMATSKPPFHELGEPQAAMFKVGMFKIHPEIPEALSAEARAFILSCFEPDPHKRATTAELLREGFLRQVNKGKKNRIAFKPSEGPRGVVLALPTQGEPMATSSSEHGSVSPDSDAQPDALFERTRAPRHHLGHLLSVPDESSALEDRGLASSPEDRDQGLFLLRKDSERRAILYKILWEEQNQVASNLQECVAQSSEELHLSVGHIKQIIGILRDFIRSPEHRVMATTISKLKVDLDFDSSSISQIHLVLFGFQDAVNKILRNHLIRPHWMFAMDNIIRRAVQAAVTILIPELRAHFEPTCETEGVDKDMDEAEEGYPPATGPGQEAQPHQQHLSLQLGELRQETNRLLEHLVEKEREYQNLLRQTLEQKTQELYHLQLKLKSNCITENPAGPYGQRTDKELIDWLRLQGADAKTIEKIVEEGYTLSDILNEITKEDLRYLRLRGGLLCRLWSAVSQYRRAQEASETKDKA
Chain of UniProt Q9BXA7 (whole entry, looked up): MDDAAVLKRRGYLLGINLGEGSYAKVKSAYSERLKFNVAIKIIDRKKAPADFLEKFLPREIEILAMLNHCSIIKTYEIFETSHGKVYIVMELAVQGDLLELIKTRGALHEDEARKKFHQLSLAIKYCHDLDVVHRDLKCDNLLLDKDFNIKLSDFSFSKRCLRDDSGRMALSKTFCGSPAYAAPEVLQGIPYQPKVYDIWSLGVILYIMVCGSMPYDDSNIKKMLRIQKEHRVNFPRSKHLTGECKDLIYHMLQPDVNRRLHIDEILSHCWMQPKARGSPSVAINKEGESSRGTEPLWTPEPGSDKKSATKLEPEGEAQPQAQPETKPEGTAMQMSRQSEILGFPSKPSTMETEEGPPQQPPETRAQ

Study 1 — organism: Leishmania donovani; read-out: parasite killing; strain: DD8; endpoint: inhibition
Compound: c1ccc(Oc2ccc(Nc3c4c(nc5ccccc35)CCC4)cc2)cc1
intracellular amastigotes; 40 µM, 24 h: 100%
promastigotes; 1.66 µM, 96 h: 84% and 81% and 80%
intracellular amastigotes; 2 µM, 48 h: 37% and 53%
intracellular amastigotes; 0.4 µM, 96 h: 53% and 52% and 54%
promastigotes; 6.66 µM, 96 h: 100% and 99%
promastigotes; 66.66 µM, 24 h: 100% and 99%

Study 2 — read-out: enzyme activity; action: inhibitor; concentration: 77 µM; baseline: untreated; endpoint: remaining activity
Target: DNA polymerase theta, ATPase domain (POLQ, Homo sapiens, UniProt O75417)
Chain of UniProt O75417 (whole entry, unmodified, looked up): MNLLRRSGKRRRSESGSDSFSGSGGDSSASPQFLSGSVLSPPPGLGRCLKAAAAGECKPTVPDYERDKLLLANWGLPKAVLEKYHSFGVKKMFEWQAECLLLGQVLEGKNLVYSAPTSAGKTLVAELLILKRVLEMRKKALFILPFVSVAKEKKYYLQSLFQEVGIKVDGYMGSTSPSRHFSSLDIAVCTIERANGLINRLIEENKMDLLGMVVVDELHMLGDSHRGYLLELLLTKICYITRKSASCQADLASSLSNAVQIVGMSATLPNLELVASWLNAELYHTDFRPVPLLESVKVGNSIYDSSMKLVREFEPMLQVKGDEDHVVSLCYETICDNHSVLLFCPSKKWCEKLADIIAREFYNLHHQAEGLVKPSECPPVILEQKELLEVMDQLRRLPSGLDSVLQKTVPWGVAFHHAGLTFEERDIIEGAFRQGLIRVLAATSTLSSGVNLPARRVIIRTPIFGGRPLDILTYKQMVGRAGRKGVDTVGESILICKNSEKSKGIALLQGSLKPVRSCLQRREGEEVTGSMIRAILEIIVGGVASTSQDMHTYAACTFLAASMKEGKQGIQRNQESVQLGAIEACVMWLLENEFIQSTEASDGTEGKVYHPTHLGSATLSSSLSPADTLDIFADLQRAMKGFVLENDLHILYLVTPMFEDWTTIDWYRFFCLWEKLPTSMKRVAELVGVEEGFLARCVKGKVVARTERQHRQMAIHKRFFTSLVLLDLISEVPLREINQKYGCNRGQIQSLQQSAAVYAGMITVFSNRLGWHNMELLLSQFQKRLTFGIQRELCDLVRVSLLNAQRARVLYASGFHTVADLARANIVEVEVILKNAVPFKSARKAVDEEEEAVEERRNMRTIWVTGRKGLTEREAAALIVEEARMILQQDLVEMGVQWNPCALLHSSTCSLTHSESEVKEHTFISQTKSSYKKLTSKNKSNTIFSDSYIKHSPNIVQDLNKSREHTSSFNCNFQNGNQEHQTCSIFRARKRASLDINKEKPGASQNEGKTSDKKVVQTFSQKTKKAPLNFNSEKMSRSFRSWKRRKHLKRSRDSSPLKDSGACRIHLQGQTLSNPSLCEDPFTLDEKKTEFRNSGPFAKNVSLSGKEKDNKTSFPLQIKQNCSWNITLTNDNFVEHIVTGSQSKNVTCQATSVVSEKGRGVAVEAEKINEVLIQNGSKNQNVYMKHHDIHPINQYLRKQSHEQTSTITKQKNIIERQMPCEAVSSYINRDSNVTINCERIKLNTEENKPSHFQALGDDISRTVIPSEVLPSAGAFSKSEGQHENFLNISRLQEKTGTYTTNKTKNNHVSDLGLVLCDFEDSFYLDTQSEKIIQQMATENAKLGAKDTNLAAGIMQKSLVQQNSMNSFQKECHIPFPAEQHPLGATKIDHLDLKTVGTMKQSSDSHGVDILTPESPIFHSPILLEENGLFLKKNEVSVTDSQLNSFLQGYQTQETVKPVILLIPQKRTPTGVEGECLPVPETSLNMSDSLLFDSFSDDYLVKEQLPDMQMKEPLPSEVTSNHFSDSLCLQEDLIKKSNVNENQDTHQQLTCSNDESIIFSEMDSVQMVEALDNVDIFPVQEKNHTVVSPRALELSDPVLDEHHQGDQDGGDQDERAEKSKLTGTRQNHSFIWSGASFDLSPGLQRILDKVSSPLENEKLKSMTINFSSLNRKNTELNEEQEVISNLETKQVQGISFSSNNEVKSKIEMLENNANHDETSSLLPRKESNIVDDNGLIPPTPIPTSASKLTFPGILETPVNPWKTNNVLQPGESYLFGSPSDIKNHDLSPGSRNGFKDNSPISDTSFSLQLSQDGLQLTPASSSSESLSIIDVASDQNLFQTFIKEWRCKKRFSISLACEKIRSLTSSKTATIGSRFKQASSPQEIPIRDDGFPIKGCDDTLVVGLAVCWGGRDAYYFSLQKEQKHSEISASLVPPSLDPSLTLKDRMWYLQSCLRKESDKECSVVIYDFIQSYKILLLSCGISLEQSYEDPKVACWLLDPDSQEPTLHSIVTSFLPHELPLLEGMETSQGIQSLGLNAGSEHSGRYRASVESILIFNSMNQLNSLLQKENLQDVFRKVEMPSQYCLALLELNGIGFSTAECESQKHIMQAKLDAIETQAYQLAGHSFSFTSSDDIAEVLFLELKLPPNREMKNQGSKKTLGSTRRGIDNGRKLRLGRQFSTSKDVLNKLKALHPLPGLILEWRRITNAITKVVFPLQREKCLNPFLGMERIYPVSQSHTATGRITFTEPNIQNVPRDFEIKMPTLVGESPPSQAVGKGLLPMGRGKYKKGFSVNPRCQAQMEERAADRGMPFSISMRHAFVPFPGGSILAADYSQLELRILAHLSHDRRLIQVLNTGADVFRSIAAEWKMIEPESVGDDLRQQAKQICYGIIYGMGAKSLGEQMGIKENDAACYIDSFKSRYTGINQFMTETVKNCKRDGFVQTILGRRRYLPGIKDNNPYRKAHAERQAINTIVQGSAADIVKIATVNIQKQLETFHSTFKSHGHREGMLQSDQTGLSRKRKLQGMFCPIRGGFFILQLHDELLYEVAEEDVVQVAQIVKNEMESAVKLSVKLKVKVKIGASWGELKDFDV
CCCCCCCCCCCCCCC[C@H](O)[C@H](N)CO (racemic): 86%
COC(=O)C1=C(C#N)NC(C)=C(C(=O)OC(C)C)C1c1cccc([N+](=O)[O-])c1 (stereo not drawn): 102%
CCCC(C)NC(=O)c1ccc(Cl)c(Cl)c1 (stereo not drawn): 98.3%
CC(=O)O/N=C1/C(c2c(O)[nH]c3cc(Br)ccc23)=Nc2ccccc21: 103%
CCN(CC)C(=O)/C(C#N)=C/c1cc(O)c(O)c([N+](=O)[O-])c1: 96.2%

Study 3 — concentration: 1 µM; endpoint: remaining binding
SMILES: Cc1c(C(=O)O)cc(-c2ccc(C3CCNCC3)cc2)c2ccc(-c3ccc(C(F)(F)F)cc3)cc12
Glycogen synthase kinase-3 beta (GSK3B, Homo sapiens, UniProt P49841); cell-free assay, competition with immobilised ligand: 100%
Casein kinase I isoform alpha-like (CSNK1A1L, Homo sapiens, UniProt Q8N752); cell-free assay, competition with immobilised ligand: 100%
Mitogen-activated protein kinase kinase kinase kinase 5 (MAP4K5, Homo sapiens, UniProt Q9Y4K4); binding, competition with immobilised ligand: 100%
NUAK family SNF1-like kinase 1 (NUAK1, Homo sapiens, UniProt O60285); binding, competition with immobilised ligand: 100%
Bone morphogenetic protein receptor type-1B (BMPR1B, Homo sapiens, UniProt O00238); cell-free assay, competition with immobilised ligand: 100%
Cyclin-dependent kinase 14 (CDK14, Homo sapiens, UniProt O94921); binding, competition with immobilised ligand: 100%
Ephrin type-A receptor 8 (EPHA8, Homo sapiens, UniProt P29322); cell-free assay, competition with immobilised ligand: 100%
Myosin light chain kinase family member 4 (MYLK4, Homo sapiens, UniProt Q86YV6); cell-free assay, competition with immobilised ligand: 100%
Phosphatidylinositol 4,5-bisphosphate 3-kinase catalytic subunit alpha isoform (PIK3CA, Homo sapiens, UniProt P42336, Q546K); cell-free assay, competition with immobilised ligand: 100%
Testis-specific serine/threonine-protein kinase 1 (TSSK1B, Homo sapiens, UniProt Q9BXA7); binding, competition with immobilised ligand: 100%
Serine/threonine-protein kinase pim-3 (PIM3, Homo sapiens, UniProt Q86V86); binding, competition with immobilised ligand: 100%
Mitogen-activated protein kinase kinase kinase 15 (MAP3K15, Homo sapiens, UniProt Q6ZN16); binding, competition with immobilised ligand: 100%
AP2-associated protein kinase 1 (AAK1, Homo sapiens, UniProt Q2M2I8); binding: 100%
Serine/threonine-protein kinase WNK1 (WNK1, Homo sapiens, UniProt Q9H4A3); binding, competition with immobilised ligand: 100%
Casein kinase II subunit alpha' (CSNK2A2, Homo sapiens, UniProt P19784); cell-free assay, competition with immobilised ligand: 100%
Serine/threonine-protein kinase Chk2 (CHEK2, Homo sapiens, UniProt O96017); binding, competition with immobilised ligand: 100%
Serine/threonine-protein kinase PLK2 (PLK2, Homo sapiens, UniProt Q9NYY3); binding, competition with immobilised ligand: 100%
Ankyrin repeat and protein kinase domain-containing protein 1 (ANKK1, Homo sapiens, UniProt Q8NFD2); binding, competition with immobilised ligand: 100%
Dual specificity mitogen-activated protein kinase kinase 2 (MAP2K2, Homo sapiens, UniProt P36507); binding, competition with immobilised ligand: 100%
Mast/stem cell growth factor receptor Kit (KIT, Homo sapiens, UniProt P10721, L576P); binding, competition with immobilised ligand: 100%
Serine/threonine-protein kinase RIO2 (RIOK2, Homo sapiens, UniProt Q9BVS4); binding, competition with immobilised ligand: 100%
Non-receptor tyrosine-protein kinase TYK2, JH2 (TYK2, Homo sapiens, UniProt P29597); binding, competition with immobilised ligand: 100%
Bone morphogenetic protein receptor type-2 (BMPR2, Homo sapiens, UniProt Q13873); cell-free assay, competition with immobilised ligand: 100%
MAP/microtubule affinity-regulating kinase 4 (MARK4, Homo sapiens, UniProt Q96L34); binding, competition with immobilised ligand: 97%
Serine/threonine-protein kinase VRK2 (VRK2, Homo sapiens, UniProt Q86Y07); binding, competition with immobilised ligand: 100%

Study 4 — endpoint: patients with TEAE
SMILES: CC(C)n1cnc(-c2ccc(F)cc2)c1-c1ncc(C(=O)Nc2ccc(N3CCN(C)CC3)cc2)[nH]1
phase 2a trial; patients with idiopathic pulmonary fibrosis; 60 mg once daily, eye swelling, grade 2: 0%
item: interferon gamma increased; idiopathic pulmonary fibrosis patients; 30 mg once daily: 0%
phase 2a trial; idiopathic pulmonary fibrosis patients; oral, 30 mg once daily, urine red cells, grade 4: 0%
phase 2a trial; patients with idiopathic pulmonary fibrosis; 60 mg once daily, nervous system disorders SOC, grade 4: 0%
phase 2a trial; idiopathic pulmonary fibrosis patients; oral, 60 mg once daily, musculoskeletal disorders, grade 2: 1%

Study 5 — organism: Sarcocystis neurona; read-out: parasite growth; concentration: concentration not given; setting: first screen; baseline: untreated; endpoint: log2 fold change
CS(=O)(=O)O.O=C(O[C@H]1C[C@H]2CC3C[C@@H](C1)N2CC3=O)c1c[nH]c2ccccc12: 0.0744
CN1CCN(c2nc3cc(C(F)(F)F)ccc3n3cccc23)CC1: 0.12
Nc1nc(=O)[nH]cc1F: 0.25
C[C@]12CCC(=O)C=C1CC[C@@H]1[C@@H]2[C@@H](O)C[C@@]2(C)[C@H]1CC[C@]2(O)C(=O)COC(=O)CCC(=O)O: 0.00573
CC(Cc1ccccc1)(NC(=O)CN)c1ccccc1.Cl (stereo not drawn): 0.15
COc1ccc(C(=O)NCc2ccc(OCCN(C)C)cc2)cc1OC.Cl: 0.21

Study 6 — endpoint: remaining binding
Structure (SMILES): COc1ccc2[nH]c3c4[nH]c5ccc(OC)cc5c4c4c(c3c2c1)C(=O)NC4=O
Casein kinase II subunit alpha (CSNK2A1, Homo sapiens, UniProt P68400); binding; 1 µM: 61%
Tyrosine-protein kinase Lck (LCK, Homo sapiens, UniProt P06239); binding, competition with immobilised ligand; 1 µM: 85%
Serine/threonine-protein kinase NIM1 (NIM1K, Homo sapiens, UniProt Q8IY84); binding; 1 µM: 100%
Atypical kinase COQ8B, mitochondrial (COQ8B, Homo sapiens, UniProt Q96D53); binding; 1 µM: 75%
Phosphatidylinositol 5-phosphate 4-kinase type-2 beta (PIP4K2B, Homo sapiens, UniProt P78356); binding; 1 µM: 100%
Platelet-derived growth factor receptor alpha (PDGFRA, Homo sapiens, UniProt P16234); DiscoverX cell-free binding; 1000 nM: 11%
Serine/threonine-protein kinase Nek2 (NEK2, Homo sapiens, UniProt P51955); binding, competition with immobilised ligand; 1 µM: 78%
